Published values gathered from unrelated publications.
Each line is one published result; not all experiments were run side by side. Numbers after ± are the reported error.

SMILES	assay	system	setting	scale	endpoint	result
COCCN(CC(N)=O)C(=O)CN(CCOC)C(=O)CN(CCOC)C(=O)CN(CCOC)C(=O)CN(CCOC)C(=O)CN(CCOC)C(=O)CN(CCOC)C(=O)CN(CCCCC(N)C(=O)O)C(=O)CN(CCOC)C(=O)CN(CCOC)C(=O)CN(CCOC)C(=O)CN(CCOC)C(=O)CN(CCOC)C(=O)CN(CCOC)C(=O)C(Cc1ccccc1)NC(C)=O (centres unmarked)	potentiometric titration with KOH	100 x 1 mM KCl	–	–	pKa of NH2 group	9.5
c1ccc(CN2CCOCCOCCN(CCCCCCCCN3CCOCCOCCN(CCCCCCCCN4CCOCCOCCN(Cc5ccccc5)CCOCCOCC4)CCOCCOCC3)CCOCCOCC2)cc1	scanning electron microscopy	Escherichia coli cell surface	concentration not given, 5 min	–	aggregate size	226 ± 9 nm
C[C@H](CN(C)Cc1ccccc1)NC(=O)c1ccc(-c2noc(C(F)(F)[18F])n2)cc1	PET	Sprague-Dawley rat, female, brain and heart	intravenous, 1 min	baseline: brain SUV over heart SUV	brain-to-heart ratio	0.8 ± 1.62
N=C(N)NCCC[C@@H]1NC(=O)[C@H](Cc2c[nH]c3ccccc23)NC(=O)[C@@H](CC2CCCCC2)NC(=O)[C@@H]2CCCN2C(=O)[C@@H](NC(=O)CCc2ccccc2)CCCNC1=O	–	C57BL/6J mouse, spinal cord	intravenous, 1 mg/kg, single dose, two-compartment model	–	distribution rate constant (K12)	19.7 h⁻¹
CNC(=O)N[C@]1(C)CCC[C@@]2(C)C3CC[C@@]4(C)C[C@]3(CCC21)CC4=O (single isomer, unassigned)	–	rat plasma	400 ng/mL, freeze-thaw stability, three cycles	baseline: nominal concentration	relative error	0.8%
COc1ccc(/C=C/c2ccc(-c3ccc(C)cn3)nc2)cc1	TCSPC	EtOH	–	–	fluorescence lifetime	0.92 ns
NC[C@@H](C(=O)Nc1ccc(-c2cn[nH]c2)cc1)c1ccccc1	OECD 405 eye irritation	New Zealand White rabbit, eye	topical, 0.1%, 56 h (day 3), scale 0 to 4	direction not given	cornea score	0
CSCOC1C(=O)C2(C)C(OCSC)CC3OCC3(OC(C)=O)C2C(OC(=O)c2ccccc2)C2(O)CC(OC(=O)C(O)C(C=C(C)C)NC(=O)OC(C)(C)C)C(C)=C1C2(C)C (centres unmarked)	–	female Sprague-Dawley rat, plasma	intravenous, 4 mg/kg	–	AUC(0-t)	903 ng·h/mL
Cc1ccccc1/N=N/c1ccc(/N=N/c2c(O)ccc3ccccc23)c(C)c1	–	rat whole blood	5.0 µg/L, 30 days, -20 °C, long-term storage	–	measured concentration	5.19 µg/L
C[C@H](Oc1cc(-c2cnn(C3CCN(CC[18F])CC3)c2)cnc1N)c1c(Cl)ccc(F)c1Cl	PET imaging	nude mouse, muscle	iv, 10 min post injection	–	tracer uptake	2.3 ± 0.8 %ID/cc
CCCC[C@H](NC(=O)CNC(=O)CNC(=O)CN1CCN(CC(=O)O)CCN(CC(=O)O)CC1)C(=O)N[C@H]1CC(=O)NCCCC[C@@H](C(N)=O)NC(=O)[C@H](Cc2c[nH]c3ccccc23)NC(=O)[C@H](CCCNC(=N)N)NC(=O)[C@@H](Cc2ccccc2)NC(=O)[C@H](Cc2c[nH]cn2)NC1=O [copper-64 labelled]	–	C57 mouse female B16/F1 melanoma, urine	intravenous, 0.037 MBq, 24 h	–	urinary excretion	97.05 ± 0.55%
COCC1CN(C2CCN(c3cc(OC)c(Nc4ncc(Br)c(Nc5ccc6c(c5P(C)(C)=O)OCCO6)n4)cc3C)CC2)C1	–	human patients	oral, 10 to 240 mg once daily	–	treatment-related AST increased, all grades	33.3%
Cc1cccc(O[C@H]2CCC[C@@H](C(C)CNCc3ccncc3)C2)c1 (relative stereo)	–	C57BL/6 mouse female, brain	oral, 25 mg/kg	–	Clast	57 ng/mL
[2H]C([2H])([2H])NC(=O)c1ccc(N2C(=S)N(c3ccc(C#N)c(C(F)(F)F)c3)C(=O)C2(C)C)cc1F	–	male human, plasma	oral, 160 mg, single dose, fasted	–	AUC	759000 ng·h/mL
CCCCCCc1ccc(Oc2ccccc2C#N)c(O)c1	rapid equilibrium dialysis	mouse plasma	4 h, 37 °C	–	unbound fraction in plasma	0.01
Cn1c(=O)oc2ccc(-c3ccc(CC(C#N)NC(=O)C4CNCCCO4)c(F)c3)cc21 (centres unmarked)	measured: bacterial test positive	human volunteers	oral	–	treatment-emergent adverse event incidence	7.4%
CN1CCC[C@]1(C)/C=C/S(=O)(=O)NC(=O)Nc1c2c(cc3c1CCC3)CCC2	–	human, plasma	oral, 100 mg, single dose, healthy volunteers	–	Cmax	11500 ng/mL
CC(NC(=O)OC1OC(C(=O)O)C(O)C(O)C1O)c1cc(Cl)ccc1Cn1c(=S)[nH]c(=O)c2[nH]ccc21 (centres unmarked)	–	Sprague-Dawley rat, male, plasma	oral, 125 mg/kg/day	baseline: rat over human 15 mg	exposure ratio	1.5
CCN(CC)c1ccc2nc3c4ccccc4/c(=N/c4ccncc4)cc-3oc2c1	–	NMRI mice, infected and noninfected, plasma	oral, 20 mg/kg	–	terminal half-life	~10 h
Cc1ccc(C(C)C)cc1.O=C(N=P(c1ccccc1)(c1ccccc1)c1ccccc1)c1ccccn1.[Cl-].[Cl-].[Ru+2]	measured: ruthenium	NOD scid mice, plasma	intraperitoneal, 5 mg/kg, after first injection	–	AUC total	54500 ng·h/mL
COC1C=COC2(C)Oc3c(C)c(O)c4c(c3C2=O)C2=NC3(CCN(CC(C)C)CC3)NC2=C(NC(=O)C(C)=CC=CC(C)C(O)C(C)C(O)C(C)C(OC(=O)Nc2cscn2)C1C)C4=O (centres unmarked)	–	CD-1 mouse female, plasma	oral, 10 mg/kg	–	fAUC/MIC ratio	25

SMILES	assay	system	setting	scale	endpoint	result
CN1CC[C@H](c2c(O)cc(O)c3c(=O)cc(/C=C/c4c(Cl)cccc4Cl)oc23)[C@H](O)C1	USP paddle dissolution	phosphate buffer, 0.25% SLS	60 min, pH 6.8	–	dissolved drug	84%
CCCC[C@@H]1NC(=O)[C@@H](NC(=O)[C@H](CCC(=O)O)NC(=O)CNC(=O)CN2CCN(CC(=O)O)CCN(CC(=O)O)CCN(CC(=O)O)CC2)CCCCNC(=O)C[C@@H](C(N)=O)NC(=O)[C@H](C(C)C)NC(=O)[C@@H]2CCCN2C(=O)[C@H](CCCNC(=N)N)NC(=O)CNC(=O)[C@H](Cc2c[nH]c3ccccc23)NC(=O)[C@H](CCCNC(=N)N)NC(=O)[C@@H](Cc2ccccc2)NC(=O)[C@H](Cc2c[nH]cn2)NC(=O)[C@H](CCC(=O)O)NC1=O [gallium-67 labelled]	–	B16/F1 melanoma-bearing C57 mice, intestine	intravenous, 2 h, together with: blocking peptide 10 µg	–	tissue uptake	0.74 ± 0.1 %ID
CCCCN1C(=O)c2cccc3c(NCCCN4CCOCC4)ccc(c23)C1=O	–	aqueous medium	pH 6	–	average fluorescence lifetime	5.4 ns
[O-]c1cccc(-c2cccc([O-])n2)n1.[Ru+2].c1cnc2c(c1)c1c(c3cccnc32)OCCO1.c1cnc2c(c1)c1c(c3cccnc32)OCCO1	shake flask	octanol/buffer	–	–	logP of basic form	2
CC(C)[C@H](NC(=O)[C@@H]1CCCN1C(=O)[C@H](CCCNC(=N)N)NC(=O)[C@H](CS)NC(=O)[C@H](Cc1c[nH]c2ccccc12)NC(=O)[C@H](CCCNC(=N)N)NC(=O)[C@@H](Cc1ccccc1)NC(=O)[C@H](Cc1c[nH]cn1)NC(=O)[C@H](CCC(=O)O)NC(=O)[C@H](CS)NC(=O)[C@H](CS)NC(=O)[C@@H]1CC(=O)N[C@@H](CCCNC(=N)N)C(=O)NCC(=O)N[C@@H](CC(=O)O)C(=O)N[C@H](Cc2ccc(O)cc2)C(=O)N1)C(N)=O [technetium-99m labelled]	–	C57 mice B16/F1 melanoma female, urine	iv, 0.037 MBq, 2 h	–	excretion	74.6 ± 4.55%
C#CC(C)NC(=O)C(CC(C)(C)F)NC(c1ccc(-c2ccc(S(C)(=O)=O)cc2)cc1)C(F)(F)F (centres unmarked)	LC-MS UV trace	aqueous buffer	concentration not given, 23 h, pH 8.0, 37 °C, together with: cysteine 10 mM	–	cysteine adduct formation	0%
CC[C@H](C)[C@H](NC(=O)[C@@H]1CCCN1C(=O)CNC(=O)[C@H](Cc1ccccc1)NC(=O)[C@H](CC(N)=O)NC(=O)[C@H](CC(N)=O)NC(=O)[C@H](CO)NC(=O)[C@H](CO)NC(=O)[C@H](Cc1c[nH]cn1)NC(=O)[C@@H](NC(=O)[C@H](CC(C)C)NC(=O)[C@H](Cc1ccccc1)NC(=O)[C@H](CC(N)=O)NC(=O)[C@H](C)NC(=O)[C@H](CC(C)C)NC(=O)[C@H](CCCNC(=N)N)NC(=O)[C@H](CCC(N)=O)NC(=O)[C@@H](NC(=O)[C@H](C)NC(=O)[C@@H]1CSSC[C@H](NC(=O)[C@@H](N)CCCCN)C(=O)N[C@@H](CC(N)=O)C(=O)N[C@@H]([C@@H](C)O)C(=O)N[C@@H](C)C(=O)N[C@@H]([C@@H](C)O)C(=O)N1)[C@@H](C)O)C(C)C)C(=O)N[C@@H](CC(C)C)C(=O)N[C@@H](CO)C(=O)N1CCC[C@H]1C(=O)N[C@H](C(=O)N[C@@H](CC(N)=O)C(=O)N[C@H](C(=O)NCC(=O)N[C@@H](CO)C(=O)N[C@@H](CC(N)=O)C(=O)N[C@H](C(=O)N[C@@H](Cc1ccc(O)cc1)C(N)=O)[C@@H](C)O)C(C)C)[C@@H](C)O	ion mobility mass spectrometry	nitrogen drift gas	dimer ion charge +4	–	collision cross section	896.1 ± 2.3 Å²
CC(C)c1cnc(-c2cc(Cl)ccc2F)cc1Nc1ccncc1C(=O)NC(CO)CO	monotherapy, measured: blood alkaline phosphatase increased	human patients	oral, dose not given, grade 1, phase I A	–	patients with treatment-related adverse event	9.5%
O=C([O-])CN1CCN(CC(=O)[O-])CCN(CC(=O)NC[C@H]2CC[C@H](C(=O)N[C@H](Cc3cnc4ccccc4c3)C(=O)NCCCC[C@H](NC(=O)N[C@@H](CCC(=O)O)C(=O)O)C(=O)O)CC2)CCN(CC(=O)[O-])CC1.[64Cu+2]	–	human patient	140 MBq, 24 h post-injection, at 1 m from patient	–	radiation exposure rate	< 0.4 µSv/h
CC(C)[C@H](NC(=O)CNC(=O)[C@H](CCC(N)=O)NC(=O)[C@H](C)N)C(=O)O	–	human, both sexes, plasma	intravenous infusion, 90 mg/kg/h, 2 h infusion, geometric mean	–	volume of distribution	13 L/kg
COc1cc(NC(C)=O)c2c(c1O)-c1c(OC)c(OC)cc3c1C(C2)N(C)CC3 (centres unmarked)	–	rat kidney homogenate	0.5 µg/mL, 24 h, room temperature, post-preparative storage	–	remaining compound	90.6 ± 1.6%
Cc1cnc(Nc2cc(C)c(C)c(C)c2)nc1Nc1ccc2oc(=O)[nH]c2c1	–	rat, plasma	intravenous, 1.0 mg/kg	–	Vss	1.3 L/kg
N=C(N)NCCC[C@H](NC(=O)CON=C[C@H](F)[C@@H](O)[C@H](O)[C@H](O)CO)C(=O)NCC(=O)N[C@@H](CC(=O)O)C(=O)O [fluorine-18 labelled]	–	nude mice, U-87 MG xenograft	intravenous, 0.5 h	baseline: tumour over liver	tissue ratio	2.17 ± 0.76
C#CCOc1ccc(/C=C2\SC(=O)N(CC(=O)NCc3ccccc3)C2=O)cc1	–	water	298.15 K	–	standard Gibbs energy of solution	8.37 kcal/mol
COC(=O)c1ccc(-c2cn(Cc3cc(Cl)ccc3O[11CH3])nn2)cc1	PET, 2TCM	rhesus macaque, cerebellum	dose not given	–	distribution volume VT	0.981 mL/cm³
CC(=O)N[C@H](CSSC[C@H](N)C(=O)O)C(=O)N[C@H](C)C(=O)N[C@H](CCCNC(=N)N)C(=O)N[C@H](CCCNC(=N)N)C(=O)N[C@H](CCCNC(=N)N)C(=O)N[C@H](C)C(=O)N[C@H](CCCNC(=N)N)C(N)=O	–	male human, plasma	intravenous, 10 mg, single dose, healthy volunteers	–	Vd	150 L
CC(C)(O)c1ncc([S@](N)(=O)=NC(=O)Nc2c3c(cc4c2CCC4)CCC3)s1	–	human, plasma	oral, 100 mg, single dose, fed, healthy volunteers	–	AUC(0-inf)	117000 ng·h/mL
CN(C)Cc1ccc([C@H]2C[C@@]3(C)[C@@H](CC[C@@]3(O)C(F)(F)C(F)(F)F)[C@@H]3CCC4=CC(=O)CCC4=C32)cc1	–	rat liver microsomes	100 % absorption assumed	–	maximal oral bioavailability	100%
Cc1ccc(OCC(=O)O)cc1	–	Sprague-Dawley rat, male, plasma	oral, 100 mg/kg/day of parent drug, day 1, 90-day repeated dosing	–	t1/2	2.75 h
CCCCC/C=C/C=C/C(=O)NCC(C)C	–	rat plasma	15 ng/mL, 48 h, 4 °C, short-term storage low QC	baseline: nominal concentration	relative error	-0.22%
